Experimental data of several laboratories.
Protocols differ between the studies behind these lines. Numbers after ± are the reported error.
VIPR2: Vasoactive intestinal polypeptide receptor 2 (VIPR2, Homo sapiens, UniProt P41587)
Sequence of UniProt P41587 (whole entry, looked up): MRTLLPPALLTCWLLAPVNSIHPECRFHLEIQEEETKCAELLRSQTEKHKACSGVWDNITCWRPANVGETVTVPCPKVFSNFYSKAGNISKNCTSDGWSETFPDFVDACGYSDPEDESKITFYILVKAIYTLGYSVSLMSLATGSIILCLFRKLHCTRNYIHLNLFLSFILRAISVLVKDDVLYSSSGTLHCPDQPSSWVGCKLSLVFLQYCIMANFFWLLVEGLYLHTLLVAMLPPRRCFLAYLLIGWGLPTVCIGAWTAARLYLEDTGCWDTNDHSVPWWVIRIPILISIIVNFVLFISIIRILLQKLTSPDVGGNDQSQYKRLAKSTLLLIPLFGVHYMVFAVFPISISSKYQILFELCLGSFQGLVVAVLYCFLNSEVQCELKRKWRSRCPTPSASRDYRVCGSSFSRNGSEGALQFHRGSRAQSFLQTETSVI
DRD3: D(3) dopamine receptor (DRD3, Homo sapiens, UniProt P35462)
Sequence of UniProt P35462 (whole entry, looked up): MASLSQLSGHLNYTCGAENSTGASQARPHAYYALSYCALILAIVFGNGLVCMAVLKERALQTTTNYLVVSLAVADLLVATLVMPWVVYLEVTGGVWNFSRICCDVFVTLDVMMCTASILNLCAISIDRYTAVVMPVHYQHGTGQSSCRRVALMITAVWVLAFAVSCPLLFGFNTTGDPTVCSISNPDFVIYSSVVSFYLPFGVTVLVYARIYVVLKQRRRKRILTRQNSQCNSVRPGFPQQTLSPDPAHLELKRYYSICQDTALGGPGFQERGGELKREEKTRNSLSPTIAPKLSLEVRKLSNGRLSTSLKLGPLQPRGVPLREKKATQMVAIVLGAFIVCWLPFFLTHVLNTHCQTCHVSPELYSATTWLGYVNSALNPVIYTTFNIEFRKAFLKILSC
Sequence of UniProt P41586 (whole entry, unmodified, looked up): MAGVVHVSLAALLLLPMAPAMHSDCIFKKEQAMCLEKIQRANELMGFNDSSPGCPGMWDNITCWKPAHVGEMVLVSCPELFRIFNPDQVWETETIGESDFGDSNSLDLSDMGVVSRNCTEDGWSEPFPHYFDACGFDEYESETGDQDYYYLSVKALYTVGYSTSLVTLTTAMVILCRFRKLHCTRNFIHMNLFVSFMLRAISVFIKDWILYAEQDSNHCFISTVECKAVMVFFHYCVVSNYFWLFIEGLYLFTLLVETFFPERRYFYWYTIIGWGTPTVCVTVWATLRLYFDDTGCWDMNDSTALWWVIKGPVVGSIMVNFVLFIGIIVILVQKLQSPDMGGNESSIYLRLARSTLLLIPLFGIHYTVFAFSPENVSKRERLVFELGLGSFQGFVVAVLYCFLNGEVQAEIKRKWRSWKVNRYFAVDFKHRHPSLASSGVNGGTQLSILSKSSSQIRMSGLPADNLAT
Sequence of UniProt P08588 (whole entry, looked up): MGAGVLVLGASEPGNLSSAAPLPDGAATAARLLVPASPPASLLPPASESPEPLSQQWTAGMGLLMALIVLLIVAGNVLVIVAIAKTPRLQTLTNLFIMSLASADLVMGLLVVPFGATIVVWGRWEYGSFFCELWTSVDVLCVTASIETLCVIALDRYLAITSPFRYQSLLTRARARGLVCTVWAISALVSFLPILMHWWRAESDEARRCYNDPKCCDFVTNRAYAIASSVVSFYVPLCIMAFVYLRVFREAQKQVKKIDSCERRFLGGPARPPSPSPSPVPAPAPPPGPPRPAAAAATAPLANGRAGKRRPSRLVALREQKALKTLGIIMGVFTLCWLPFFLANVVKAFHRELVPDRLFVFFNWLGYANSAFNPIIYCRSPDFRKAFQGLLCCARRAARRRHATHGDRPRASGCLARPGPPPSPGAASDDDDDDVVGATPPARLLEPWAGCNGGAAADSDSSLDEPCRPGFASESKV
Sequence of UniProt P51878 (whole entry, looked up): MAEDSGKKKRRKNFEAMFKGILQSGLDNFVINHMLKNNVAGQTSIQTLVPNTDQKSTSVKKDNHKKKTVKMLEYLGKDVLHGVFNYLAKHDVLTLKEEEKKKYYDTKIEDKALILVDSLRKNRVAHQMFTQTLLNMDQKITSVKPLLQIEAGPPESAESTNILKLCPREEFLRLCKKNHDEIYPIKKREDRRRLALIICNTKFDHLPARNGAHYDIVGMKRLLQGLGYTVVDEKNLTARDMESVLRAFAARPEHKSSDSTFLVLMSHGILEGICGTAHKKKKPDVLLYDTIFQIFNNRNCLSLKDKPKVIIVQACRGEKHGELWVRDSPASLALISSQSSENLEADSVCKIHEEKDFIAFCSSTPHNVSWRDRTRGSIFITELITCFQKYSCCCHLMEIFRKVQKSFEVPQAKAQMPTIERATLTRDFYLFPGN
Sequence of UniProt P21554 (whole entry, looked up): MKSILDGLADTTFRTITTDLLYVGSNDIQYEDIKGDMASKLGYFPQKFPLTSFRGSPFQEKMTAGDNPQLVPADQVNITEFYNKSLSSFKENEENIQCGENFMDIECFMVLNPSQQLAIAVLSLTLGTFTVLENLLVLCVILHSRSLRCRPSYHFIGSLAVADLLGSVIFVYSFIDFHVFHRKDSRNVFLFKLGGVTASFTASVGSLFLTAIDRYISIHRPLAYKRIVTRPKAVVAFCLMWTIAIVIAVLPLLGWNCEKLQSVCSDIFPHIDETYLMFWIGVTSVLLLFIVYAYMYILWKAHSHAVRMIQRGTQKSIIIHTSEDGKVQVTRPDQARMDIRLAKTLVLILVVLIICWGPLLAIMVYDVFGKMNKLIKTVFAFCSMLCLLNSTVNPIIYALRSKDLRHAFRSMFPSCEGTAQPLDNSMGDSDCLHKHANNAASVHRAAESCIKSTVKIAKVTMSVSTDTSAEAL
Sequence of UniProt P41143 (whole entry, unmodified, looked up): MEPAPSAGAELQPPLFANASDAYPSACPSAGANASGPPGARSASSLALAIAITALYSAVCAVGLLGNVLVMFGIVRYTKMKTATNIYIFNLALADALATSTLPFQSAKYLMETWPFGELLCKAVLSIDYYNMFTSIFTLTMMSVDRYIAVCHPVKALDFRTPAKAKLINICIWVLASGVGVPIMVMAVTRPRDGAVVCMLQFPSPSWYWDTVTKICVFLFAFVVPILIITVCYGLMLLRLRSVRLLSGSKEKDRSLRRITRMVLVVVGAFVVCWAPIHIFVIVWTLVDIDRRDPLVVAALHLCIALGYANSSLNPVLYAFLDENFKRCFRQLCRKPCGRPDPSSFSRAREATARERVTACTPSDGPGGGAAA

`CSCC[C@H](NC(=O)[C@H](CCC(N)=O)NC(=O)[C@H](CCCCN)NC(=O)[C@H](CCCNC(=N)N)NC(=O)[C@H](Cc1ccc(O)cc1)NC(=O)[C@H](CCCNC(=N)N)NC(=O)[C@H](CO)NC(=O)[C@H](Cc1ccc(O)cc1)NC(=O)[C@H](CO)NC(=O)[C@H](CC(=O)O)NC(=O)[C@@H](NC(=O)[C@@H](N)Cc1ccccc1)[C@@H](C)O)C(=O)N[C@@H](C)C(=O)N[C@H](C(=O)N[C@@H](CCCCN)C(=O)N[C@@H](CCCCN)C(=O)N[C@@H](Cc1ccc(O)cc1)C(=O)N[C@@H](CC(C)C)C(=O)N[C@@H](C)C(=O)N[C@@H](C)C(=O)N[C@H](C(=O)N[C@@H](CC(C)C)C(=O)NCC(=O)N[C@@H](CCCCN)C(=O)N[C@@H](CCCNC(=N)N)C(=O)N[C@@H](Cc1ccc(O)cc1)C(=O)N[C@@H](CCCCN)C(=O)N[C@@H](CCC(N)=O)C(=O)N[C@@H](CCCCn1cc(C[C@H](NC(=O)CNC(=O)[C@H](CO)NC(=O)[C@H](CCCNC(=N)N)NC(=O)[C@H](CO)NC(=O)[C@H](CC(C)C)NC(=O)[C@H](CC(C)C)NC(=O)CNC(=O)[C@H](C)NC(=O)[C@H](CC(C)C)NC(=O)[C@H](CCCNC(=N)N)NC(=O)[C@H](Cc2c[nH]cn2)NC(=O)[C@@H](NC(=O)[C@@H](N)C(C)C)[C@@H](C)O)C(=O)N[C@H](C(=O)N[C@H](C(=O)N[C@@H](CCCCN)C(=O)N[C@@H](CC(N)=O)C(=O)N[C@@H](CC(N)=O)C(=O)N[C@@H](Cc2ccccc2)C(=O)N[C@H](C(=O)N2CCC[C@H]2C(=O)N[C@H](C(=O)N[C@@H](CC(N)=O)C(=O)N[C@H](C(=O)NCC(=O)N[C@@H](CO)C(=O)N[C@@H](CCCCN)C(=O)N[C@@H](C)C(=O)N[C@@H](Cc2ccccc2)C(N)=O)C(C)C)[C@@H](C)O)C(C)C)C(C)C)C(C)C)nn1)C(=O)N[C@H](C(=O)N[C@@H](CCCCN)C(=O)N[C@@H](CC(N)=O)C(=O)N[C@@H](CCCCN)C(N)=O)C(C)C)C(C)C)C(C)C` has a Kb of 7410 nM (VIPR2; cAMP accumulation, antagonist; COS-7 transfected; from pA2, single concentration, with: PACAP-38).
For `CC(C)CC(C(=O)N1CC2(CC1C#N)C(=O)Nc1ccccc12)N(C)C(=O)c1cc2c(F)cc(F)c(F)c2[nH]1` (centres unmarked), the IC50 was greater than 100000 nM (Caspase-5 (CASP5, Homo sapiens, UniProt P51878); enzyme activity, inhibitor).
For `C[C@@H](Cc1ccsc1)NC(=O)NC[C@H](Cc1ccc(O)cc1)N(C)C`, the Ki was greater than 50000 nM (DRD3; cell-free assay).
`CCN(CC)C(=O)c1ccc(C(c2cccc(O)c2)N2CC(C)N(Cc3ccccc3)CC2C)cc1` (centres unmarked) has a Ki of 1.91 ± 0.06 nM (OPRD1 (Homo sapiens, UniProt P41143, Y129A)).
With `CSCC[C@H](NC(=O)[C@H](CCC(N)=O)NC(=O)[C@H](CCCCN)NC(=O)[C@H](CCCNC(=N)N)NC(=O)[C@H](Cc1ccc(O)cc1)NC(=O)[C@H](CCCNC(=N)N)NC(=O)[C@H](CO)NC(=O)[C@H](Cc1ccc(O)cc1)NC(=O)[C@H](CO)NC(=O)[C@H](CC(=O)O)NC(=O)[C@@H](NC(=O)[C@@H](N)Cc1ccccc1)[C@@H](C)O)C(=O)N[C@@H](C)C(=O)N[C@H](C(=O)N[C@@H](CCCCN)C(=O)N[C@@H](CCCCn1cc(C[C@H](NC(=O)CNC(=O)[C@H](CO)NC(=O)[C@H](CCCNC(=N)N)NC(=O)[C@H](CO)NC(=O)[C@H](CC(C)C)NC(=O)[C@H](CC(C)C)NC(=O)CNC(=O)[C@H](C)NC(=O)[C@H](CC(C)C)NC(=O)[C@H](CCCNC(=N)N)NC(=O)[C@H](Cc2c[nH]cn2)NC(=O)[C@@H](NC(=O)[C@@H](N)C(C)C)[C@@H](C)O)C(=O)N[C@H](C(=O)N[C@H](C(=O)N[C@@H](CCCCN)C(=O)N[C@@H](CC(N)=O)C(=O)N[C@@H](CC(N)=O)C(=O)N[C@@H](Cc2ccccc2)C(=O)N[C@H](C(=O)N2CCC[C@H]2C(=O)N[C@H](C(=O)N[C@@H](CC(N)=O)C(=O)N[C@H](C(=O)NCC(=O)N[C@@H](CO)C(=O)N[C@@H](CCCCN)C(=O)N[C@@H](C)C(=O)N[C@@H](Cc2ccccc2)C(N)=O)C(C)C)[C@@H](C)O)C(C)C)C(C)C)C(C)C)nn1)C(=O)N[C@@H](Cc1ccc(O)cc1)C(=O)N[C@@H](CC(C)C)C(=O)N[C@@H](C)C(=O)N[C@@H](C)C(=O)N[C@H](C(=O)N[C@@H](CC(C)C)C(=O)NCC(=O)N[C@@H](CCCCN)C(=O)N[C@@H](CCCNC(=N)N)C(=O)N[C@@H](Cc1ccc(O)cc1)C(=O)N[C@@H](CCCCN)C(=O)N[C@@H](CCC(N)=O)C(=O)N[C@@H](CCCNC(=N)N)C(=O)N[C@H](C(=O)N[C@@H](CCCCN)C(=O)N[C@@H](CC(N)=O)C(=O)N[C@@H](CCCCN)C(N)=O)C(C)C)C(C)C)C(C)C` the Kb was 240 nM (VIPR2; cAMP accumulation, antagonist; with: VIP).
`CN(C)[C@H](CNC(=O)/C=C/c1cccc2ccccc12)Cc1ccc(O)cc1` gave a Ki of 2300 nM (ADRB1 (Homo sapiens, UniProt P08588); cell-free assay).
For `O=C1NC2(CC2)COc2ncc(F)cc2[C@H]2COCCN2c2ccn3ncc1c3n2`, “aspartate aminotransferase activity” read 141 ± 28.9 U/L (Sprague-Dawley rat, female, serum; oral, 20 mg/kg/day, 4 weeks daily, end of treatment).
`CC[C@H](C)[C@H](NC(=O)[C@H](CO)NC(=O)[C@H](CC(N)=O)NC(=O)[C@H](CC(C)C)NC(=O)[C@H](Cc1ccc(O)cc1)NC(=O)[C@H](CCCCN)NC(=O)[C@H](CCCCN)NC(=O)[C@@H](NC(=O)[C@H](C)NC(=O)[C@H](CCSC)NC(=O)[C@H](CCC(N)=O)NC(=O)[C@H](CCCCN)NC(=O)[C@H](CCCN=C(N)N)NC(=O)[C@H](CC(C)C)NC(=O)[C@H](CCCN=C(N)N)NC(=O)[C@@H](NC(=O)[C@H](Cc1ccc(O)cc1)NC(=O)[C@H](CC(N)=O)NC(=O)[C@H](CC(=O)O)NC(=O)[C@@H](NC(=O)[C@H](Cc1ccccc1)NC(=O)[C@@H](NC(=O)[C@H](C)NC(=O)[C@H](CC(=O)O)NC(=O)[C@H](CO)NC(=O)[C@@H](N)Cc1c[nH]cn1)C(C)C)[C@@H](C)O)[C@@H](C)O)C(C)C)C(=O)N[C@@H](CC(C)C)C(=O)N[C@@H](CC(N)=O)C(N)=O` has an EC50 of 20.9 nM (ADCYAP1R1 (Homo sapiens, UniProt P41586, del89-109); calcium signal, agonist, fluorescence).
`CSCC[C@H](NC(=O)[C@H](CCC(N)=O)NC(=O)[C@H](CCCCN)NC(=O)[C@H](CCCNC(=N)N)NC(=O)[C@H](Cc1ccc(O)cc1)NC(=O)[C@H](CCCNC(=N)N)NC(=O)[C@H](CO)NC(=O)[C@H](Cc1ccc(O)cc1)NC(=O)[C@H](CO)NC(=O)[C@H](CC(=O)O)NC(=O)[C@@H](NC(=O)[C@@H](N)Cc1ccccc1)[C@@H](C)O)C(=O)N[C@@H](C)C(=O)N[C@H](C(=O)N[C@@H](CCCCN)C(=O)N[C@@H](CCCCN)C(=O)N[C@@H](Cc1ccc(O)cc1)C(=O)N[C@@H](CC(C)C)C(=O)N[C@@H](C)C(=O)N[C@@H](C)C(=O)N[C@H](C(=O)N[C@@H](CC(C)C)C(=O)NCC(=O)N[C@@H](CCCCN)C(=O)N[C@@H](CCCNC(=N)N)C(=O)N[C@@H](Cc1ccc(O)cc1)C(=O)N[C@@H](CCCCN)C(=O)N[C@@H](CCC(N)=O)C(=O)N[C@@H](CCCNC(=N)N)C(=O)N[C@H](C(=O)N[C@@H](CCCCN)C(=O)N[C@@H](CC(N)=O)C(=O)N[C@@H](CCCCn1cc(C[C@H](NC(=O)CNC(=O)[C@H](CO)NC(=O)[C@H](CCCNC(=N)N)NC(=O)[C@H](CO)NC(=O)[C@H](CC(C)C)NC(=O)[C@H](CC(C)C)NC(=O)CNC(=O)[C@H](C)NC(=O)[C@H](CC(C)C)NC(=O)[C@H](CCCNC(=N)N)NC(=O)[C@H](Cc2c[nH]cn2)NC(=O)[C@@H](NC(=O)[C@@H](N)C(C)C)[C@@H](C)O)C(=O)N[C@H](C(=O)N[C@H](C(=O)N[C@@H](CCCCN)C(=O)N[C@@H](CC(N)=O)C(=O)N[C@@H](CC(N)=O)C(=O)N[C@@H](Cc2ccccc2)C(=O)N[C@H](C(=O)N2CCC[C@H]2C(=O)N[C@H](C(=O)N[C@@H](CC(N)=O)C(=O)N[C@H](C(=O)NCC(=O)N[C@@H](CO)C(=O)N[C@@H](CCCCN)C(=O)N[C@@H](C)C(=O)N[C@@H](Cc2ccccc2)C(N)=O)C(C)C)[C@@H](C)O)C(C)C)C(C)C)C(C)C)nn1)C(N)=O)C(C)C)C(C)C)C(C)C` has a Kb of 2090 nM (VIPR2; cAMP accumulation, antagonist; COS-7 transfected; from pA2, single concentration, with: PACAP-38).
With `CCN(CC)C(=O)[C@@H]1C=C2c3cccc4c3c(cn4C(=O)c3ccco3)C[C@H]2N(C)C1` the Ki was 1430 nM (DRD3; ligand displacement, radioligand).
For `Cc1ccc2c(C(C[N+](=O)[O-])c3cccs3)c(-c3ccccc3)[nH]c2c1` (centres unmarked), the EC50 was 140 nM (CNR1 (Homo sapiens, UniProt P21554); G protein activation, agonist, BRET).

Excerpt of the above:
For `CC(C)CC(C(=O)N1CC2(CC1C#N)C(=O)Nc1ccccc12)N(C)C(=O)c1cc2c(F)cc(F)c(F)c2[nH]1` (centres unmarked), the IC50 was greater than 100000 nM (Caspase-5 (CASP5, Homo sapiens, UniProt P51878); enzyme activity, inhibitor).
